{"data": "Measured values gathered from unrelated publications", "note": "Every numbered part comes from another study and shows a few of its results, in no order.", "sequence of UniProt P62837 (whole entry, looked up)": "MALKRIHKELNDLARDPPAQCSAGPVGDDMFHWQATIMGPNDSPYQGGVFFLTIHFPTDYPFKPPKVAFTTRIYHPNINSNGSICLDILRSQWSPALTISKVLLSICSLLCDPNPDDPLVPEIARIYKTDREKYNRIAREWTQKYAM"}
{"data": "Study 1", "target": "Prothrombin, mature alpha-thrombin (F2, Homo sapiens, UniProt P00734)", "method": "aptamer microarray, sandwich", "molecule type": "DNA with 2'F-ANA", "matrix": "in vitro", "concentration": "200 nM", "notes": "whole 15-mer aptamer, many near background", "added": "Cy3 exosite-II aptamer, 400 nM", "reading": "higher = stronger binding", "sequence": "GGTTGGTGTGGTTGG"}
{"Modification": "2'F-ANA at 3 4 6 8 10 11 12 13 14", "mean fluorescence intensity": "144 a.u."}
{"Modification": "2'F-ANA at 2 3 6 7 8 9 10 11 12 15", "mean fluorescence intensity": "326 a.u."}
{"Modification": "2'F-ANA at 2 3 4 9 10 12 15", "mean fluorescence intensity": "319 a.u."}
{"Modification": "2'F-ANA at 1 2 4 8 9 10", "mean fluorescence intensity": "52.5 a.u."}
{"Modification": "2'F-ANA at 3 4 5 7 8 9 10 11 12 13 14 15", "mean fluorescence intensity": "51.6 a.u."}
{"Modification": "2'F-ANA at 2 4 5 7 10 12 14", "mean fluorescence intensity": "56 a.u."}
{"Modification": "2'F-ANA at 1 2 3 4 7 9 10 13 15", "mean fluorescence intensity": "64.2 a.u."}
{"Modification": "2'F-ANA at 1 2 5 8 14", "mean fluorescence intensity": "44.6 a.u."}
{"data": "Study 2", "target": "PABPC1L2, full length, GST fusion (mouse, UniProt A0ABA7IW68)", "method": "RNAcompete", "molecule type": "RNA", "matrix": "in vitro", "concentration": "20 nM", "notes": "7-mer, probes averaged, single round", "baseline": "mean of 7-mers", "reading": "higher = stronger binding", "Target sequence (chain)": "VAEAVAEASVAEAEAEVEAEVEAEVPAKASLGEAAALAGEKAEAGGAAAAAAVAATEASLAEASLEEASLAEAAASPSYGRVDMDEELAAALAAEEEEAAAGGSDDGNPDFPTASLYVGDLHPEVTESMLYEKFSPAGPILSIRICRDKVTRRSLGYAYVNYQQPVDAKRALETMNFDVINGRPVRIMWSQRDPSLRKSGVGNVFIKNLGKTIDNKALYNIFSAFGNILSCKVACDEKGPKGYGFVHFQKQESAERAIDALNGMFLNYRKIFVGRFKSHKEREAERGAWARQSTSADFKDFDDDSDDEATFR"}
{"Sequence": "GAUAGAU", "7-mer Z-score": -0.0591}
{"Sequence": "AGGUUGG", "7-mer Z-score": 0.0823}
{"Sequence": "UCUAGAG", "7-mer Z-score": -0.24}
{"Sequence": "GUCAUGA", "7-mer Z-score": -0.0554}
{"Sequence": "GGCGCGC", "7-mer Z-score": -0.26}
{"Sequence": "GAAAGAA", "7-mer Z-score": 1.58}
{"Sequence": "AGAUACU", "7-mer Z-score": -0.287}
{"Sequence": "GACUUUA", "7-mer Z-score": -0.106}
{"data": "Study 3", "target": "Cyclic AMP-responsive element-binding protein 1 (CREB1, Homo sapiens, UniProt P16220, residues 1-327, full length assumed)", "method": "protein-binding microarray", "molecule type": "double-stranded DNA, one strand shown", "matrix": "in vitro", "concentration": "not given", "notes": "k-mer, scored over probes, only values ≥0.25", "reading": "higher = stronger binding", "sequence of UniProt P16220 (whole entry, looked up)": "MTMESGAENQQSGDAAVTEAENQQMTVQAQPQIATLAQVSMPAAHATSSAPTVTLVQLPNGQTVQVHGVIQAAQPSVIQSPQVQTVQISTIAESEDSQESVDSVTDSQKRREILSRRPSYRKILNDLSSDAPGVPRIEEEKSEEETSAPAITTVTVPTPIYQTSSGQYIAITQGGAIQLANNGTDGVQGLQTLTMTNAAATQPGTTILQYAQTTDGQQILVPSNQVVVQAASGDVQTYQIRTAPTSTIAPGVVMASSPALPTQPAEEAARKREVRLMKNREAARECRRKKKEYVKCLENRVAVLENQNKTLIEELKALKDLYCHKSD"}
{"Sequence": "ATAATTA", "E-score": 0.258}
{"Sequence": "ACGTAAA", "E-score": 0.356}
{"Sequence": "GTAAGAA", "E-score": 0.263}
{"Sequence": "CGTAATC", "E-score": 0.383}
{"Sequence": "CATTACG", "E-score": 0.322}
{"Sequence": "GTACGTA", "E-score": 0.32}
{"Sequence": "GACGTCA", "E-score": 0.491}
{"Sequence": "AAATGAC", "E-score": 0.32}
{"data": "Single results of other studies"}
{"Sequence": "FLKKLEQSFMCVCCQELVYQPVTTECFHNVCKDCLQRSFKAQVFSCPACRHDLGQNYIMI (UHRF2 RING domain (UniProt Q96PU4))", "target": "UBE2D2 UBC core domain (UniProt P62837)", "test": "yeast two-hybrid", "system": "yeast", "setting": "mostly zero background", "how to read": "baseline: not given, higher = stronger interaction", "measurement": "lacZ reporter activity", "result": 9140}
{"note": "For quick reference, copied from above (study 1):"}
{"Modification": "2'F-ANA at 1 2 4 8 9 10", "mean fluorescence intensity": "52.5 a.u."}
{"Modification": "2'F-ANA at 3 4 5 7 8 9 10 11 12 13 14 15", "mean fluorescence intensity": "51.6 a.u."}
